Measurements pooled from the literature.
Every numbered part comes from another study and shows a few of its results, in no order. Substitutions count along the parent as printed.

Block 1 — target: CCNB2, cyclin fold, Cln2 fusion (human); method: yeast growth competition, sequencing; matrix: yeast; notes: weak parent motif; relative to: not given; reading: higher = stronger binding
Starting sequence: PKN2 docking peptide (human); DSTVTKLDFDLEP
| Change | normalised enrichment score |
| --- | --- |
| DSAVTKLDFDLEP [T3A] | 0.235 |
| DSTVTKLDADLEP [F9A] | -0.514 |
| DATVTKLDFDLEP [S2A] | 0.35 |
| DSTVTALDFDLEP [K6A] | -0.273 |
| DSTVAKLDFDLEP [T5A] | 0.565 |
| DSTVTKLDFDAEP [L11A] | 0.262 |

Block 2 — method: Spec-seq; molecule type: double-stranded DNA, one strand shown; matrix: in vitro; tested at: not given; notes: whole probe, mean of replicates; relative to: not given; reading: lower = stronger binding; all sequences stand within: GAGTCGTCTCGTCAGCAC … CCGTAGAGCACTCAGGTC
Target: POU, POU domain (Salpingoeca helianthica)
Residues (chain): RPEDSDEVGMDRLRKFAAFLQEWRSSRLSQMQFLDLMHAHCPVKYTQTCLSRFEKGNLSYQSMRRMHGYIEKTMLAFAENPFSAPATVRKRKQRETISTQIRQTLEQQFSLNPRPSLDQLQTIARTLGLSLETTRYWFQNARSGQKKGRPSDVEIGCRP
| Sequence | relative binding energy |
| --- | --- |
| ATGCACCA | 1.01 ln ratio |
| ATCGTAAT | 0.167 ln ratio |
| ATGCCACC | 0.973 ln ratio |
| AACCTAAT | 0.593 ln ratio |
| ATTTCAAT | 0.633 ln ratio |
| TCGATAAT | 0.244 ln ratio |
| ATCTATAT | 1.01 ln ratio |
| ATGCGAAT | 1.45 ln ratio |
| CCGATAAT | 0.378 ln ratio |
| ATGCCCTA | 1.27 ln ratio |
| TTGTTAAT | -0.86 ln ratio |
| AGGCTAAT | 0.59 ln ratio |
| ATGCGCCT | 0.919 ln ratio |
| ATGCCTGG | 1.33 ln ratio |

Block 3 — method: universal PBM; molecule type: double-stranded DNA, one strand shown; matrix: in vitro; tested at: 600 nM; reading: higher = stronger binding
Target: Sal-like protein 4, full length isoform A (SALL4, Homo sapiens, UniProt Q9UJQ4, residues 1-1053)
UniProt Q9UJQ4, sequence (whole entry, looked up): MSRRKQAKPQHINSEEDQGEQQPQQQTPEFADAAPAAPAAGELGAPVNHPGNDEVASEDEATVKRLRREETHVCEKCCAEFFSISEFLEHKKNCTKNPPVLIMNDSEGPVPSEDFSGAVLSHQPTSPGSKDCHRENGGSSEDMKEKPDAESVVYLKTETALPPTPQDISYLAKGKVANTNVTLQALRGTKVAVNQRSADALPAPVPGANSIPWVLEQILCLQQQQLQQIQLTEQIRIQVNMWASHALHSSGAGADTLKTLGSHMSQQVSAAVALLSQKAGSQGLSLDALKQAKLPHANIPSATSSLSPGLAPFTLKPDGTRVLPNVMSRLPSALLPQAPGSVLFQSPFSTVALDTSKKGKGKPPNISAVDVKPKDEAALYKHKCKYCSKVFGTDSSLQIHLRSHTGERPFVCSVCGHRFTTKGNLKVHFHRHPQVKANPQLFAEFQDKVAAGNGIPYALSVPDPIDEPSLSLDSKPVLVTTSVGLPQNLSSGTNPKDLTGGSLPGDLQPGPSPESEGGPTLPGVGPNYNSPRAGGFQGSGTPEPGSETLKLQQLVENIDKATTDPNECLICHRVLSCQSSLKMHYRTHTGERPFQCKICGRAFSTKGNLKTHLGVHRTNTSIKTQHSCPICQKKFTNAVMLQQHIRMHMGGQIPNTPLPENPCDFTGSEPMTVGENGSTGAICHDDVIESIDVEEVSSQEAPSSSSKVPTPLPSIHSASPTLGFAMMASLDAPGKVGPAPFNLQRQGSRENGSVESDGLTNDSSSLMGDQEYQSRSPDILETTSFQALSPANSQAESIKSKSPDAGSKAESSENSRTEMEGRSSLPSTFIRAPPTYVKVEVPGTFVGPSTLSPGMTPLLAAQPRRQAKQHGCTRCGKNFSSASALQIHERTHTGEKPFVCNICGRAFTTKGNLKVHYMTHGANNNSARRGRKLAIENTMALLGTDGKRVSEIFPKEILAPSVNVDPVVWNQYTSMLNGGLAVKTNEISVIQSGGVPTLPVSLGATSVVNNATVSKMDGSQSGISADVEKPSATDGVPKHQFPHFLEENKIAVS
Notes: 8-mer, flanks averaged, mean of replicates
| Sequence | E-score |
| --- | --- |
| ATCCGTGA | -0.0678 |
| TCAACCAA | 0.129 |
| GAAACTAC | 0.107 |
| GTCCTGAA | -0.0538 |
| CTACCATC | -0.207 |
| GATCACAA | 0.169 |
| AGTATGTA | 0.24 |
| AGGCCACC | -0.288 |
| GGAGACCA | -0.201 |

Other studies, line by line
| Substance | target | assay | system | conditions | scale | endpoint | result |
| --- | --- | --- | --- | --- | --- | --- | --- |
| PhoQ, residues 284 288 289 292 302 303 SCCLKL | PhoP, residues 12 14 15 18 19 SYFRT (Escherichia coli, UniProt P23836) | Sort-seq, refers to: YFP reporter | E. coli | PhoQ-PhoP variant library, together with: 10 µM Mg2+ | relative to: high Mg2+ state, higher = stronger signaling | fold induction | 10 |

For quick reference, copied from above (block 3):
| Sequence | E-score |
| --- | --- |
| GTCCTGAA | -0.0538 |
| CTACCATC | -0.207 |
